Results gathered from unrelated publications.
Each numbered part is a random draw from the data of one study; scales do not carry over between parts.

Study 1 — method: aptamer microarray, sandwich; form: DNA with 2'F-ANA; medium: in vitro; concentration: 200 nM; with: Cy3 exosite-II aptamer, 400 nM; direction: higher = stronger binding; sequence: GGTTGGTGTGGTTGG
Target: Prothrombin, mature alpha-thrombin (F2, Homo sapiens, UniProt P00734)
Notes: whole 15-mer aptamer, many near background
`2'F-ANA at 1 4 5 6 7 8 10 13` — result for “mean fluorescence intensity”: 46.2 a.u.
For `2'F-ANA at 1 2 4 5 6 7 9 13 14 15`, “mean fluorescence intensity” read 47.5 a.u.
`2'F-ANA at 1 2 6 7 9 10 14`: “mean fluorescence intensity” 45.4 a.u.
`2'F-ANA at 7 8 9 10 12 13 14 15`: “mean fluorescence intensity” 121 a.u.
`2'F-ANA at 9 10 11 13`: “mean fluorescence intensity” 139 a.u.

Study 2 — method: RNA Bind-n-Seq; form: RNA; medium: in vitro; concentration: 365 nM; baseline: no-protein control; direction: higher = stronger binding
Target: RNA binding protein fox-1 homolog 2, RRM domain, GST-SBP tag (RBFOX2, Homo sapiens, UniProt O43251-10, residues 100-194)
Notes: natural RNA segment, single round, ends assumed
Target sequence (chain): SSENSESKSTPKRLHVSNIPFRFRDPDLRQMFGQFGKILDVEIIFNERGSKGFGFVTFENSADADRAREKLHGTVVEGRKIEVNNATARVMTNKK
`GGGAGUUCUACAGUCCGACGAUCAUAAAUUGAAAUUGUUAUGCUUUUGUAUUUCCAUUUCUUGCAAAUAAAUAUUUUUUCUUAAAUAGUAGAUGUUGCCCAGUCUUUAUAAUCUUGGUACUAAUUUGAAAAGCUGGAAUUCUCGGGUGCCAA`: “RBNS enrichment (R)” 0.678.
For `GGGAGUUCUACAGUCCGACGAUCUCAGCGGAUGUUCACUCUGGCCUGCCGUUCCCCGUGGCAUGCGGGGUGAGGGUGGCUUUCUUCCAGCCCCAAAUGAGACGAGUCUGUGUCAUCAUUGAAACUGCUUUUCGUGGAAUUCUCGGGUGCCAA`, “RBNS enrichment (R)” read 0.64.
For `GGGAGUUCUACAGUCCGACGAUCGGGCUCCCUGGCAUGCCUGCCCUAGAAUUGUUAUGUUGGGCAUCACAGUCAUGAACUUUUGUUUUUCUCCCUUUUUUAGUUUUUUCAAAGAUGGGGGGAAGGGAAAUAUGUGGAAUUCUCGGGUGCCAA`, “RBNS enrichment (R)” read 1.9.
Under “RBNS enrichment (R)”, `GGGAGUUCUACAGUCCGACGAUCCCCCCAGAUAUCCUCACCUCAGGGCCUCCUUUUUUUGCAAACUCCUCCCCUCCCCCGAGGGCAGACCCAGCCAGCUGCUAAGCUCUGCAGCUCCCCAGUGGACAGUGUCAUGGAAUUCUCGGGUGCCAA` is recorded as 0.457.
`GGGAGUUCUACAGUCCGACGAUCUGCCCGCCGGCUCACCCUUCAGCUGCUGUCGGCCUCUGCUGCCCCUCCCCCAGCCCUUAGCACAGAGAGGGAGAUGCCCCUCCCCAAGCUGCGUUUUUUUAUAGUAGAUUUGGAAUUCUCGGGUGCCAA` — result for “RBNS enrichment (R)”: 0.669.
Under “RBNS enrichment (R)”, `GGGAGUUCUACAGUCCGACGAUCCAGGUCUGGGCAGGGGUCUGAUGGUCCACUGUGGGCUGUUUCCCUAUCCACCCCCCUCCUUGCUGGCCUACUCUGACAUAAUACAAGUGUCUUCUUGCCUUGAGGAACCUUGGAAUUCUCGGGUGCCAA` is recorded as 0.367.
Under “RBNS enrichment (R)”, `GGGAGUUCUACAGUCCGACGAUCAUUCAGCAUCUGAGGGCUGCAAGUACAGAAGGAAUCUAUUCUCAGCAGGGCAUAGGGCACGCACUGGCUUAACAGUUUAGUAUAUAAGGCUCAAAUAGUCUAUACCUGAAUGGAAUUCUCGGGUGCCAA` is recorded as 0.309.
`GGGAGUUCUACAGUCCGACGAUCAGCAGCUCCCCAGAAAAAAACGACACUGCGAGCCCUCGGGACAUGACUGAGUUCCACCUCCUGAAGCCAGACUCCACCUCUUGUGCUUUUUUGCUUGGGAAAAAGGAGUUUGGAAUUCUCGGGUGCCAA` — result for “RBNS enrichment (R)”: 0.277.
`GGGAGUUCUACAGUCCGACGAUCCACUGUGCUCACGACUGGAAAGUAGCCUUUUUCUUCUAUCAAUGUUUACCAUAAAGUUCCUUUCUCAGUAGAUUUUUCUUUCUUUUUUAAAAGAGGUGGUUGGCAAUUUAUGGAAUUCUCGGGUGCCAA` — result for “RBNS enrichment (R)”: 0.537.

Study 3 — method: protein-binding microarray; form: double-stranded DNA, one strand shown; medium: in vitro; concentration: 2200 nM top; notes: 60-bp whole probe; with: salmon DNA 0.4 mg/ml; baseline: random background probes; direction: higher = stronger binding; all sequences stand within: GCCTAGCAC … GTCTTGATTCGCTTGACGCTGCTG
Target: Interferon regulatory factor 7, full length, phosphomimetic (IRF7, Homo sapiens, UniProt Q92985, residues 1-503, S471D/S472D/S475D/S476D/S477D/S483D/S484D/S487D)
Construct (chain): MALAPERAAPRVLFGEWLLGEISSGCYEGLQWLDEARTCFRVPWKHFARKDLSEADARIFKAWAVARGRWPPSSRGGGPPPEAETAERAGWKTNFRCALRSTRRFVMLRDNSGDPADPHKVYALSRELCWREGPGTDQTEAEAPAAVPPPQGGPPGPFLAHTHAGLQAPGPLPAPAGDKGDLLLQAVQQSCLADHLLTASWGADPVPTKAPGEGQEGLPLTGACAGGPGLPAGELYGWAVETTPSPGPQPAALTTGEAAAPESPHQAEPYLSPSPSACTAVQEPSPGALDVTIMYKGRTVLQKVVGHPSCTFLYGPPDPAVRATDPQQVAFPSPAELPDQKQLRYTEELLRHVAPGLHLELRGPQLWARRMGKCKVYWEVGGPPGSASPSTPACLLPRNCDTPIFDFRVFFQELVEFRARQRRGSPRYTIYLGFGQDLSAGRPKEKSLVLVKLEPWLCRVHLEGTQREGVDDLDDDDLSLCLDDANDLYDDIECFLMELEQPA
For `GACGGACTAGACTTTCGGGACGTGCTA`, “fitted relative affinity” read 1.83 z-score.
`GACGGCATCCTACTGCTGACGTGCTAG` — result for “fitted relative affinity”: 0.0584 z-score.
For `GACGGTTTCCTTCTACTGACGTGCTAG`, “fitted relative affinity” read 3.06 z-score.
For `TCAATTCTTTTTATGCTACTGTGCTAG`, “fitted relative affinity” read 1.1 z-score.
For `TCATCCATGTGTTTAAAACTGTGCTAG`, “fitted relative affinity” read 1.04 z-score.
`TTAAGTTCCCTTTTCCTTTAGTGCTAG` — result for “fitted relative affinity”: 3.27 z-score.
Under “fitted relative affinity”, `GACGCTTTCGGTTTCGGGACGTGCTAG` is recorded as 15.3 z-score.

Mixed results
With `PhoQ, residues 284 288 289 292 302 303 SLSVQF` the fold induction was 1.36 (PhoP, residues 12 14 15 18 19 LWHVM (Escherichia coli, UniProt P23836); Sort-seq, item: YFP reporter; E. coli; PhoQ-PhoP variant library, with: 10 µM Mg2+; baseline: high Mg2+ state, higher = stronger signaling).

For quick reference, copied from above (study 1):
`2'F-ANA at 1 4 5 6 7 8 10 13` — result for “mean fluorescence intensity”: 46.2 a.u.
For `2'F-ANA at 1 2 4 5 6 7 9 13 14 15`, “mean fluorescence intensity” read 47.5 a.u.
`2'F-ANA at 1 2 6 7 9 10 14`: “mean fluorescence intensity” 45.4 a.u.
`2'F-ANA at 7 8 9 10 12 13 14 15`: “mean fluorescence intensity” 121 a.u.
